{"data": "Measurements of several laboratories", "target": "Serine/threonine-protein kinase D1 (PRKD1, Homo sapiens, UniProt Q15139)", "note": "Lines come from different studies, so protocols differ. Several values in a cell are separate wells, animals, samples, runs or records."}
{"Structure (SMILES)": "CN1CC[C@@H](COc2cnc(C#N)cc2-c2ccn3nc(NC(=O)C4CC4)cc3c2)C1", "assay": "enzyme activity, inhibitor", "setting": "1 µM", "quantity": "inhibition", "result": "-4%"}
{"Structure (SMILES)": "C=CC(=O)Nc1cccc(-c2cnc3[nH]cc(C(=O)NC(C)(C)C)c3n2)c1", "assay": "enzyme activity, inhibitor", "setting": "0.1 µM", "quantity": "inhibition", "result": "1%"}
{"Structure (SMILES)": "C=CC(=O)N1Cc2nc(-c3cc(-c4cc(Cl)cnc4Cl)c(F)cc3F)n(-c3ccncn3)c2C1", "assay": "cell-free assay, inhibitor", "setting": "1 µM", "quantity": "inhibition", "result": "9.6%"}
{"Structure (SMILES)": "Cc1cccc(-c2ccc3nc(NC(=O)C4CCCCC4)nn3c2)c1", "assay": "enzyme activity, Dundee kinase panel", "setting": "10 µM", "quantity": "remaining activity", "result": "89%"}
{"Structure (SMILES)": "Nc1ncc(-c2cc(-c3cnn(CC(F)(F)F)c3)ncc2F)nc1C(=O)NC1CNCC(F)C1 (stereo not shown)", "assay": "enzyme activity", "setting": "1 µM", "how to read": "relative to: DMSO control", "quantity": "remaining activity", "result": "57.9%"}
{"Structure (SMILES)": "N[C@H]1CC[C@H](Nc2nccc(-c3cccnc3Oc3ccc(NC(=O)NC4CC4)c4ccccc34)n2)CC1", "assay": "kinobead competition pulldown", "system": "HEK293/HCT116 lysate mixture", "setting": "10 µM, 1 h, 4 °C", "how to read": "lower = stronger competition", "quantity": "log2 LFQ intensity", "result": "18.5 and 19 and 21.8 and 18.9"}
{"Structure (SMILES)": "Cc1cnc2nc1Nc1cccc(c1)COC/C=C/COCc1cc(ccc1OCCN1CCOCC1)N2", "assay": "binding", "setting": "0.1 µM", "quantity": "remaining binding", "result": "93%"}
{"Structure (SMILES)": "O=c1c(-c2ccc(Cl)c(CN3CCOCC3)c2)coc2cc(O)ccc12", "assay": "enzyme activity, inhibitor", "setting": "1 µM", "quantity": "remaining activity", "result": "104%"}
{"Structure (SMILES)": "Nc1nc(Nc2ccccc2)sc1C(=O)c1ccccc1", "assay": "enzyme activity, inhibitor", "setting": "10 µM", "quantity": "remaining activity", "result": "29%"}
{"Structure (SMILES)": "Cc1cccc(-c2ccc3nc(NC(=O)C4CCOCC4)nn3c2)c1", "assay": "enzyme activity, Dundee kinase panel", "setting": "10 µM", "quantity": "remaining activity", "result": "110%"}
{"Structure (SMILES)": "NC(=O)C[C@H]1CCc2sc3ncnc(O[C@H]4CC[C@H](N5CCOCC5)CC4)c3c21", "assay": "enzyme activity, inhibitor", "setting": "10 µM", "quantity": "inhibition", "result": "0%"}
{"Structure (SMILES)": "COc1ccc(NC(=O)Nc2ccc3c(c2)C(=O)N(C(C)CO)CC(C)C(CN(C)Cc2ccc4c(c2)OCO4)O3)cc1 (stereo not shown)", "assay": "kinase activity, KinaseProfiler", "setting": "0.03 µM, species human", "how to read": "relative to: control", "quantity": "remaining activity", "result": "102%"}
{"Structure (SMILES)": "Cc1ccc(-c2c(/C=C(\\C#N)C(=O)NC(C)C)n(CCCO)c3ncnc(N)c23)cc1", "assay": "cell-free assay, competition with immobilised ligand", "setting": "1 µM", "quantity": "remaining binding", "result": "95%"}
{"Structure (SMILES)": "Cc1cccc(O[C@H]2CCC[C@@H](C(C)CNCc3ccncc3)C2)c1 (relative stereo)", "assay": "enzyme activity, inhibitor", "setting": "10 µM", "quantity": "inhibition", "result": "-1%"}
{"Structure (SMILES)": "O=C=[N][Ru-4]123([n]4c5ccc(O)cc5c5c6c(c7cc(F)c[n+]1c7c54)C(=O)NC6=O)[S+]1CC[S+]2CC[S+]3CC1 (stereo not shown)", "assay": "enzyme activity", "setting": "100 nM, human enzyme, together with: 10 µM ATP", "how to read": "relative to: untreated", "quantity": "remaining activity", "result": "100%"}
{"Structure (SMILES)": "O=C(Cc1ccc(OCc2ccccc2)cc1)NC1(C(=O)O)CCN(C(=O)c2ccc(-c3cccc(Cl)c3)cc2)CC1", "assay": "enzyme activity, inhibitor", "setting": "10 µM", "quantity": "activity vs control", "result": "102%"}
{"Structure (SMILES)": "CNC(=O)C[C@H](Cc1ccc(C#N)cc1)NC(=O)c1cc(-c2ccc(CN[C@H](C)c3ccc(C)cc3)o2)ccc1Cl", "assay": "enzyme activity, inhibitor", "setting": "1 µM", "quantity": "activity vs control", "result": "100%"}
{"Structure (SMILES)": "COc1cc(Nc2nc(C)cc(-c3cnn4nc(OC)ccc34)n2)cc(C(F)(F)F)c1", "assay": "inhibitor", "setting": "1 µM", "how to read": "relative to: control", "quantity": "remaining activity", "result": "100%"}
{"Structure (SMILES)": "Nc1ncc2c(n1)-c1c([nH]c3ccc(C4=CCOCC4)cc13)CCC2", "assay": "binding, competition with immobilised ligand", "setting": "1 µM", "quantity": "remaining binding", "result": "90%"}
{"note": "For quick reference, copied from above:"}
{"Structure (SMILES)": "N[C@H]1CC[C@H](Nc2nccc(-c3cccnc3Oc3ccc(NC(=O)NC4CC4)c4ccccc34)n2)CC1", "assay": "kinobead competition pulldown", "system": "HEK293/HCT116 lysate mixture", "setting": "10 µM, 1 h, 4 °C", "how to read": "lower = stronger competition", "quantity": "log2 LFQ intensity", "result": "18.5 and 19 and 21.8 and 18.9"}
